Assay results gathered from unrelated publications.
A part holds a random share of what one study measured. Positions count from the first letter of the parent shown.

Series 1
Target: CREB3L1, bZIP domain (human)
Method: DHFR protein complementation
Medium: yeast
Setting: single substitutions, most at no-binding floor
Baseline: wild-type JUN-FOS pair
Direction: higher = stronger binding
Parent: JUN, bZIP domain (human); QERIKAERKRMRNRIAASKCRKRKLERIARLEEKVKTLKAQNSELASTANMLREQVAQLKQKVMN; partner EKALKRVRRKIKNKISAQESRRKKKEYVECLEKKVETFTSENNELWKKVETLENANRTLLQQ
| Variant | binding fitness [natural log] |
| --- | --- |
| A49N | -1.54 |
| V56K | -1.37 |
| S47V | -1.36 |
| S43F | -1.33 |
| E32F | -1.46 |
| E54W | -1.49 |
| E33V | -1.39 |
| L31A | -1.4 |

Series 2
Target: CCNF, cyclin fold, Cln2 fusion (human)
Method: yeast growth competition, sequencing
Medium: yeast
Setting: strong parent motif
Baseline: not given
Direction: higher = stronger binding
Parent: CDKN1B docking peptide (human); PSACRNLFGPVDH
| Variant | normalised enrichment score |
| --- | --- |
| PSACRNLFGPVDC [H13C] | 7.1 |
| PSRCRNLFGPVDH [A3R] | 1.19 |
| PSACCNLFGPVDH [R5C] | 0.204 |
| PSACRKLFGPVDH [N6K] | 7.11 |
| PSACRNLGGPVDH [F8G] | 0.115 |
| PSACRNLFGPVHH [D12H] | 6.96 |
| PSACRNLVGPVDH [F8V] | -0.393 |
| PSACRDLFGPVDH [N6D] | 2.6 |

Series 3
Target: Ras GTPase-activating protein-binding protein 1, full length (G3BP1, Homo sapiens, UniProt Q13283)
Sequence of UniProt Q13283 (whole entry, looked up): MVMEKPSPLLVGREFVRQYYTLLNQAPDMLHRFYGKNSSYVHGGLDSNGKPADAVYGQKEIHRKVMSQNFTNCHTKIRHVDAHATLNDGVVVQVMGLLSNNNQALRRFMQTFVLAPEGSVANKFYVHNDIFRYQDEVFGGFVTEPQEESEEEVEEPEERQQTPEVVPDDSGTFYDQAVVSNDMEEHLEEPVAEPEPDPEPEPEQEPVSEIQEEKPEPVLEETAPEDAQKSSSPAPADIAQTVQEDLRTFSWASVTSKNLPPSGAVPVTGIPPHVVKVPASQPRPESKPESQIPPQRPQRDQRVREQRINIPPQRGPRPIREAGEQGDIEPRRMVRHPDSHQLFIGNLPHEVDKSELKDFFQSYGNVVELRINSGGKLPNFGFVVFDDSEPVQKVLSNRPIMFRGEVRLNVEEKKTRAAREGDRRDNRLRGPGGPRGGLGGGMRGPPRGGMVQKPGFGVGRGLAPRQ
Method: RNA Bind-n-Seq
Form: RNA
Medium: in vitro
Concentration: 200 nM
Setting: whole 134-nt RNA, ends assumed
With: 150 mM KCl
Baseline: input library
Direction: higher = stronger binding
| Oligonucleotide | log2 enrichment |
| --- | --- |
| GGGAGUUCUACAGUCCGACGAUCUCCUGUGCUACACAUCGUAUGUACCGAAUCGGGUUUUUGGGUUUUUGGGUUUUUUUGGGAAAGUAUUAUGUUACGCCGUUCGGAUCUGCAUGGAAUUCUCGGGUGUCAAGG | -0.23 |
| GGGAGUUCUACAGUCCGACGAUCAAGUCCUGUGCUACACAUCGUAUGUACCGAAUCGGAAAAAAAGGAGGAAAAAAAGGAAAGUAUUAUGUUACGCCGUUCGGAUCUGCACUUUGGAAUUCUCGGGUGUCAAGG | -0.814 |
| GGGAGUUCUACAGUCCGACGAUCACCAUGCAGGUGGGCAUCUUUGGGAAGUGGUGCAAGGGGGGGAUAGGGAGGGGGGUAACACUUUGGGAACAGGUGGUCCCAGGUCGUUUCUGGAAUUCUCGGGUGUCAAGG | 1.29 |
| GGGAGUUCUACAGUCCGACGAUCGUCCUGUGCUACACAUCGUAUGUACCGAAUCGGGGUGGGGUUUUUUUGGGGUUUGGGGAAAGUAUUAUGUUACGCCGUUCGGAUCUGCACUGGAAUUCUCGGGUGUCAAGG | 0.317 |
| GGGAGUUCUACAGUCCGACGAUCCAAGUCCUGUGCUACACAUCGUAUGUACCGAAUCGGGUUUGGUUUGGGGUUUGGGGAAAGUAUUAUGUUACGCCGUUCGGAUCUGCACUUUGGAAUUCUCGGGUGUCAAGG | 0.0837 |
| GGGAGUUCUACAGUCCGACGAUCCAAGUCCUGUGCUACACAUCGUAUGUACCGAAUCGGGAAAGGGAGGGAAAAAGGGAAAGUAUUAUGUUACGCCGUUCGGAUCUGCACUUCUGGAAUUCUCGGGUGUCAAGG | 0.795 |
| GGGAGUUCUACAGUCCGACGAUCUCAAGUCCUGUGCUACACAUCGUAUGUACCGAAUCGGCCCGGGCCCGGCCCGGGGAAAGUAUUAUGUUACGCCGUUCGGAUCUGCACUUCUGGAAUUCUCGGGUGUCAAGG | -1.24 |
| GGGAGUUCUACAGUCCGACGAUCCUCAAGUCCUGUGCUACACAUCGUAUGUACCGAAUCGGGUUUGGUUUGGUUUGGAAAGUAUUAUGUUACGCCGUUCGGAUCUGCACUUCCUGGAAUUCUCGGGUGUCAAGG | -0.422 |

Other studies, line by line
| SMILES | species | medium | concentration | time | quantity | value |
| --- | --- | --- | --- | --- | --- | --- |
| Cc1cccc(-n2nc(-c3cnn(C)c3C)c(Cl)c2-c2cnn(C)c2C)c1 | human | microsomes or S9 | 2 µM | 0.5 h | remaining compound | 1.14% |

Repeated from above (other studies, line by line):
| SMILES | species | medium | concentration | time | quantity | value |
| --- | --- | --- | --- | --- | --- | --- |
| Cc1cccc(-n2nc(-c3cnn(C)c3C)c(Cl)c2-c2cnn(C)c2C)c1 | human | microsomes or S9 | 2 µM | 0.5 h | remaining compound | 1.14% |
